Experimental data pooled from the literature.
Compare with care: the assays were run in different laboratories. Numbers after ± are the reported error.

`N=C(NCCCSC[C@H]1O[C@@H](n2cnc3c(NCCCc4ccccc4)ncnc32)[C@H](O)[C@@H]1O)Nc1ccccc1` gave an inhibition of less than 10% (CamA DNA adenine methyltransferase (Clostridioides difficile); enzyme activity, inhibitor, MTase-Glo luminescence (SAH); 10 µM, 3 min, pH 7.5, 22 °C, together with: SAM 40 µM).
Under “AUC antagonist score”, `CC#C[C@]1(O)CC[C@H]2[C@@H]3CCC4=CC(=O)CCC4=C3[C@@H](c3ccc(N(C)C)cc3)C[C@@]21C` is recorded as 1.21 (androgen receptor pathway; antagonist; concentration not given; direction not given).
For `Cc1cc2nc3c(=O)[nH]c(=O)nc-3n(C[C@H](O)[C@H](O)[C@H](O)COP(=O)(O)OP(=O)(O)OC[C@H]3O[C@@H](n4cnc5c(N)ncnc54)[C@H](O)[C@@H]3O)c2cc1C`, “z-scored log2 fold change” read -0.0754 (binding, equilibrium dialysis LC-MS; 5 µM, thermostabilized A2AR-BRIL construct; baseline: no-protein control, direction not given).
With `N=C(NCCCSC[C@H]1O[C@@H](n2cnc3c(NCCCc4ccccc4)ncnc32)[C@H](O)[C@@H]1O)NC1CC1` the inhibition was less than 10% (CamA DNA adenine methyltransferase (Clostridioides difficile); enzyme activity, inhibitor, MTase-Glo luminescence (SAH); 10 µM, 3 min, pH 7.5, 22 °C, together with: SAM 40 µM).
`C=CC(=O)Nc1cc(Nc2nccc(-c3cn(C)c4ccccc34)n2)c(OC)cc1N(C)CCN(C)C` has an inhibition of 74.5% (NLRP3 inflammasome (mouse); mouse BMDM; 10 µM).
`COc1cnc(Nc2cccc(S(N)(=O)=O)c2)nc1N1CCN(c2ccccc2)CC1`: “percent of control” 75% (human FLT3 ITD/D835V; binding, KINOMEscan; 1000 nM; lower = stronger binding).
The lowest IC30 of `O=C1NCCN1CCN1CCC(c2cn(-c3ccc(F)cc3)c3ccc(Cl)cc23)CC1` is reported as 2120 nM (seizure ion channel panel; ion current, inhibitor; lowest across channels).
With `C=CC(=O)N1CCC(C(=O)NCC(=O)N2CCN(c3nc(-c4cnc(N)nc4C(F)F)nc(N4CCOCC4)n3)CC2)CC1` the remaining binding was 95% (FLT3 ITD/F691L; KINOMEscan; 1 µM; baseline: vehicle).
The remaining binding of `CCN1CCN(Cc2ccc(C(=O)Nc3ccc(C)c(Oc4ccc5c(c4)CC(=O)N5)c3)cc2C(F)(F)F)CC1` is reported as 81% (FLT3 ITD; KINOMEscan; 1 µM; baseline: control).
`N#Cc1ccn2c(-c3ccncc3)c(-c3ccc(F)cc3)nc2c1` — result for “log2 fold change”: -0.0719 (orf19.3456 kinase Candida albicans; MIB/MS competition binding; Candida albicans cell lysate; 10 µM; baseline: DMSO, lower = stronger binding).
`C[C@@H](c1ccc(-n2cnc3c(N)ncnc32)cc1)N1CCc2nn(C)c(Cc3ccccc3)c2C1=O` gave a remaining binding of 98% (FLT3 ITD F691L; KINOMEscan; 100 nM; baseline: DMSO).
For `CCN=C1C=CC(=C(c2ccc(N(CC)CC)cc2)c2ccc(N(CC)CC)cc2)c2ccccc21.Cl`, “AUC antagonist score” read 0.814 (androgen receptor pathway; antagonist; concentration not given; direction not given).
`CCC(=O)NC[C@@H]1C[C@H]1c1cccc2c1CCO2` gave a lowest IC30 of greater than 30000 nM (seizure ion channel panel; ion current, inhibitor; lowest across channels).
With `CN1C[C@H](COc2nccc3c(NCc4ccco4)cc(Cl)nc23)OC1=O` the enzyme activity was 1.47 fold (human alpha-galactosidase A; activator; Fabry disease iPSC-cardiomyocytes; 1 µM; baseline: untreated).
`Oc1ccccc1-c1n[nH]cc1-c1ccnc2ccccc12`: “log2 fold change” 0.31 (SSK2 (Candida albicans); kinase binding, MIB/MS competition; Candida albicans lysate; 10 µM; baseline: DMSO).
`Nc1ncc2c(n1)-c1c([nH]c3ccc(C#CC4CC4)cc13)CCCC2` gave a remaining binding of 61% (FLT3 ITD F691L; scanMAX; 1 µM; baseline: control).
`Cc1n[nH]c2ccc(-c3cc(OC[C@@H](N)Cc4ccccc4)cnc3-c3ccoc3)cc12`: “log2 fold change” -0.328 (orf19.3456 kinase Candida albicans; MIB/MS competition binding; Candida albicans cell lysate; 100 nM; baseline: DMSO, lower = stronger binding).
`O=C(Nc1c[nH]nc1C(=O)NC1CCNCC1)c1cc(F)cc(F)c1` has a remaining binding of 89% (human FLT3 ITD D835V; scanMAX; 1 µM; baseline: control).
The EC50 of `CN1CCC[C@H]1c1cccnc1` is reported as 308000 nM (anti-compound antibody Fv; VH/VL dimerisation, split luciferase reporter; HEK293T).
`c1coc(-c2n[nH]cc2-c2ccnc3ccccc23)c1` — result for “log2 fold change”: -0.1 (NPR1 (Candida albicans); kinase binding, MIB/MS competition; Candida albicans lysate; 10 µM; baseline: DMSO).
For `CCCS(=O)(=O)Nc1ccc(F)c(C(=O)c2c[nH]c3ncc(-c4ccc(Cl)cc4)cc23)c1F`, the inhibition was -77.4% (NLRP3 inflammasome (mouse); mouse BMDM; 10 µM).
The lowest IC30 of `CC[C@H](C)C(=O)O[C@H]1C[C@H](O)C=C2C=C[C@H](C)[C@H](CC[C@@H](O)C[C@@H](O)CC(=O)O)[C@H]21` is reported as greater than 30000 nM (seizure ion channel panel; ion current, inhibitor; lowest across channels).
`N#CC1(c2ccc(NC(=O)c3cccnc3NCc3ccncc3)cc2)CCCC1` has an inhibition of 64.2% (NLRP3 inflammasome (mouse); mouse BMDM; 10 µM).
`O=C(O)CSc1nc(Cl)cc(Nc2cccc(OCCc3ccccc3)c2)n1` — result for coactivator recruitment: “decreased” (PPARγ LBD, human; inhibitor, HTRF, measured: CBP peptide; concentration not given, together with: pioglitazone).
With `Nc1cc(C(F)(F)F)c(-c2nc(N3CCOCC3)nc(N3CCOCC3)n2)cn1` the inhibition was 39.5% (NLRP3 inflammasome (mouse); mouse BMDM; 10 µM).
With `CCC(C)(C)C(=O)O[C@H]1C[C@@H](C)C=C2C=C[C@H](C)[C@H](CC[C@@H]3C[C@@H](O)CC(=O)O3)[C@H]21` the lowest IC30 was 1580 nM (seizure ion channel panel; ion current, inhibitor; lowest across channels).
`CC(Nc1nc(N2CCCC2)nc2ccccc12)c1ccccc1` (stereo not shown) — result for “cells with nuclear reporter”: 93.7% (transportin-1/2; FUS nuclear import, high content imaging; HeLa Kyoto reporter; 0.1 µM, 2 h).
For `C=CC(=O)N1CCC(Oc2cc3c(Nc4ccc(Cl)c(Cl)c4F)ncnc3cc2OC)CC1`, the inhibition was 90.5% (NLRP3 inflammasome (mouse); mouse BMDM; 10 µM).
For `COc1cc(/C=C2\SC(=O)NC2=O)cc(F)c1OCCNc1nc2c(cnn2C2CCCC2)c(=O)[nH]1`, the selectivity ratio was 5 fold (PDE1B, PDE9; baseline: PDE9 IC50 over PDE1B IC50).
Under “AUC antagonist score”, `C#C[C@]1(O)CC[C@H]2[C@@H]3CCc4cc(O)ccc4[C@H]3CC[C@@]21C` is recorded as 1 (androgen receptor pathway; antagonist; concentration not given; direction not given).
For `C[C@@H]1CCN(C(=O)CC#N)C[C@@H]1N(C)c1ncnc2[nH]ccc12`, the inhibition was -19% (NLRP3 inflammasome (mouse); mouse BMDM; 10 µM).
`CCN(C)C(=O)Oc1cccc([C@H](C)N(C)C)c1` has a lowest IC30 of greater than 30000 nM (seizure ion channel panel; ion current, inhibitor; lowest across channels).
Under “log2 fold change”, `c1ccc(-c2n[nH]cc2-c2ccnc3ccccc23)nc1` is recorded as 1.32 (orf19.3456 kinase Candida albicans; MIB/MS competition binding; Candida albicans cell lysate; 1 µM; baseline: DMSO, lower = stronger binding).
`CC1(C)NC(=O)N(c2ccc([N+](=O)[O-])c(C(F)(F)F)c2)C1=O` — result for “AUC agonist score”: 0 (androgen receptor pathway; agonist; concentration not given; direction not given).
For `N#Cc1ccc2c(-c3ccncc3)c(-c3ccc(F)cc3)nn2c1`, “log2 fold change” read 0.231 (orf19.3456 kinase Candida albicans; MIB/MS competition binding; Candida albicans cell lysate; 100 nM; baseline: DMSO, lower = stronger binding).
For `O=C1CC[C@H](C(=O)O)N1`, “z-scored log2 fold change” read 0.276 (binding, equilibrium dialysis LC-MS; 5 µM, thermostabilized A2AR-BRIL construct; baseline: no-protein control, direction not given).
`CO[C@@H](C(=O)N1Cc2[nH]nc(NC(=O)c3ccc(N4CCN(C)CC4)cc3)c2C1)c1ccccc1` has an inhibition of -61% (NLRP3 inflammasome (mouse); mouse BMDM; 10 µM).
`CC(C)C[C@@H]1NC(=O)[C@@H]2CSSC[C@@H](C(=O)NCC(N)=O)NC(=O)[C@H](Cc3ccccc3)NC(=O)CNC(=O)[C@H](CC(N)=O)NC(=O)[C@@H]3CCCN3C(=O)CNC(=O)[C@@H]3CSSC[C@H](NC(=O)[C@H]([C@@H](C)O)NC(=O)[C@H](CC(C)C)NC(=O)[C@@H]4CCCN4C(=O)[C@@H]4CCCN4C(=O)[C@H](CC(N)=O)NC(=O)[C@H](CC(=O)O)NC(=O)CNC(=O)[C@H](CCCNC(=N)N)NC(=O)[C@@H]4CCCN4C(=O)[C@H](CCCNC(=N)N)NC(=O)[C@@H]4CCCN4C(=O)[C@@H](NC(=O)CNC(=O)c4ccc(-c5c6ccc(=N)c(S(=O)(=O)O)c-6oc6c(S(=O)(=O)O)c(N)ccc56)c(C(=O)O)c4)CSSC[C@H](NC(=O)CNC(=O)[C@H](C)NC1=O)C(=O)N[C@@H](C(C)C)C(=O)N3)C(=O)N[C@@H](CO)C(=O)N[C@@H](CCC(N)=O)C(=O)N[C@@H](CC(=O)O)C(=O)N[C@@H](CO)C(=O)N[C@@H](CC(=O)O)C(=O)N2` gave a Kd of 0.36 ± 0.05 nM (integrin, human; binding, flow cytometry; U-87 MG; 10 h, 4 °C).
`Cc1ccc(-n2nc(C(C)(C)C)cc2NC(=O)NCc2cc(F)ccc2Oc2ccc3c(cnn3CCO)c2)cc1` gave an inhibition of -31.9% (NLRP3 inflammasome (mouse); mouse BMDM; 10 µM).
`CN(C)CCOC1=Cc2ccccc2Sc2ccc(Cl)cc21` has a lowest IC30 of 2710 nM (seizure ion channel panel; ion current, inhibitor; lowest across channels).
With `N=C(NCCCN)NCCCSC[C@H]1O[C@@H](n2cnc3c(NCCCc4ccccc4)ncnc32)[C@H](O)[C@@H]1O` the inhibition was less than 10% (CamA DNA adenine methyltransferase (Clostridioides difficile); enzyme activity, inhibitor, MTase-Glo luminescence (SAH); 10 µM, 3 min, pH 7.5, 22 °C, together with: SAM 40 µM).
For `CC(C)COc1ccc(CNC(=O)N(Cc2ccc(F)cc2)C2CCN(C)CC2)cc1`, the lowest IC30 was 561 nM (seizure ion channel panel; ion current, inhibitor; lowest across channels).
For `C=CC(=O)N1CCC(COCC(=O)N2CCN(c3nc(-c4cnc(N)nc4C(F)F)nc(N4CCOC[C@@H]4C)n3)CC2)CC1`, the remaining binding was 44% (FLT3 ITD F691L; KINOMEscan; 1 µM).

Repeated from above:
With `N=C(NCCCSC[C@H]1O[C@@H](n2cnc3c(NCCCc4ccccc4)ncnc32)[C@H](O)[C@@H]1O)NC1CC1` the inhibition was less than 10% (CamA DNA adenine methyltransferase (Clostridioides difficile); enzyme activity, inhibitor, MTase-Glo luminescence (SAH); 10 µM, 3 min, pH 7.5, 22 °C, together with: SAM 40 µM).
Under “AUC antagonist score”, `C#C[C@]1(O)CC[C@H]2[C@@H]3CCc4cc(O)ccc4[C@H]3CC[C@@]21C` is recorded as 1 (androgen receptor pathway; antagonist; concentration not given; direction not given).
`COc1cnc(Nc2cccc(S(N)(=O)=O)c2)nc1N1CCN(c2ccccc2)CC1`: “percent of control” 75% (human FLT3 ITD/D835V; binding, KINOMEscan; 1000 nM; lower = stronger binding).
`c1coc(-c2n[nH]cc2-c2ccnc3ccccc23)c1` — result for “log2 fold change”: -0.1 (NPR1 (Candida albicans); kinase binding, MIB/MS competition; Candida albicans lysate; 10 µM; baseline: DMSO).
